# Assay results gathered from unrelated publications.
# Every numbered part comes from another study and shows a few of its results, in no order.

# Series 1
# Target: Ras GTPase-activating protein-binding protein 1, C-terminal RGG region (G3BP1, Homo sapiens, UniProt Q13283)
# Chain of UniProt Q13283 (whole entry, looked up): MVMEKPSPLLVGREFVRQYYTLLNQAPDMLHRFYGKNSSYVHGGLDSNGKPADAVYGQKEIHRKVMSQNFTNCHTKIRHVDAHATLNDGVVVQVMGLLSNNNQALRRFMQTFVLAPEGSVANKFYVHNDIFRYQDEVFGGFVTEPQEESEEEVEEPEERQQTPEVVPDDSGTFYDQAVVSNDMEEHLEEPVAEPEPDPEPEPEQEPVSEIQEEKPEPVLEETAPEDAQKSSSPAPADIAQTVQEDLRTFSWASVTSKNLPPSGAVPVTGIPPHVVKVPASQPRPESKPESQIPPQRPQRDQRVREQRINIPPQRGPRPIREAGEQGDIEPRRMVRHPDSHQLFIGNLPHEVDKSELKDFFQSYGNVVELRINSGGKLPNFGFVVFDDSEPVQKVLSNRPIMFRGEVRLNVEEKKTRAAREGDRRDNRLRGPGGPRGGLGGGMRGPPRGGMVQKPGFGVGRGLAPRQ
# Method: RNA Bind-n-Seq
# Form: RNA
# Sample: in vitro
# Concentration: 1 µM
# Setting: whole 134-nt RNA, ends assumed
# With: 150 mM KCl
# Reference: input library
# Direction: higher = stronger binding
Oligonucleotide,log2 enrichment
GGGAGUUCUACAGUCCGACGAUCAGUGACCAUUUUAGUUAAAUUUUGUUCCUCUUCCCCCUUUUCACUUUCCUGGAAGAUCGAUGUCCCGAUCAGGAAGGUAGAGAGUUUUCCUGGAAUUCUCGGGUGUCAAGG,-0.671
GGGAGUUCUACAGUCCGACGAUCCUCAAGUCCUGUGCUACACAUCGUAUGUACCGAAUCGGUUUGGGUUUGGUUUGGAAAGUAUUAUGUUACGCCGUUCGGAUCUGCACUUCCUGGAAUUCUCGGGUGUCAAGG,-0.923
GGGAGUUCUACAGUCCGACGAUCCACAGACAACACGCACCCACACAGACACAGAAAGAAGGGGUUGGGAUGGGGACAGGGUGCACAGCAGGGCGGGGUAGGACCCCAGCCCCUUGGAAUUCUCGGGUGUCAAGG,-0.348

# Series 2
# Target: TAR DNA-binding protein 43, full length, His tag (TARDBP, Homo sapiens, UniProt Q13148, residues 1-414)
# Method: RNA Bind-n-Seq
# Form: RNA
# Sample: in vitro
# Concentration: 20 nM
# Setting: 6-mer, flanks averaged, single round
# With: 150 mM KCl
# Reference: input library
# Direction: higher = stronger binding
Oligonucleotide,6-mer enrichment (R)
ACGGAU,0.796
AGGUUU,0.685
CGGUCC,0.79
GCCAUG,0.951

# Series 3
# Target: Interferon regulatory factor 3, full length, phosphomimetic (IRF3, Homo sapiens, UniProt Q14653, residues 1-427, S386D/S396D/S398D/S402D/T404D/S405D)
# Method: protein-binding microarray
# Form: double-stranded DNA, one strand shown
# Sample: in vitro
# Concentration: 2540 nM top
# Setting: 60-bp whole probe
# With: salmon DNA 0.4 mg/ml
# Reference: random background probes
# Direction: higher = stronger binding
# Construct (chain): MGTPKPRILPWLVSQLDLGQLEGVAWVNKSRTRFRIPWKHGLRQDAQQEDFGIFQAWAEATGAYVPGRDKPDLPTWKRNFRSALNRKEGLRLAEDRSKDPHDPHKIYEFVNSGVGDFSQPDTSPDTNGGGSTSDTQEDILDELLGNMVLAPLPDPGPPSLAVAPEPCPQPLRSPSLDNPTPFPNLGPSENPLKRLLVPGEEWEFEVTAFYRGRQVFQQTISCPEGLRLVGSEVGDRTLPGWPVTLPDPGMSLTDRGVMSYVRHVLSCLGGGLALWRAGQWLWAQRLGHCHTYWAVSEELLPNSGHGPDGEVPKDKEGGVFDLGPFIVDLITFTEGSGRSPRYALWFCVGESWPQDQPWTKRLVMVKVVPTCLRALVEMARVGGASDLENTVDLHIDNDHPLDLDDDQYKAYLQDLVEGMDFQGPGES
Oligonucleotide,fitted relative affinity [z-score]
GCCTAGCACTAAGGTATCGGACTGGGTTAGTGCTAGGTCTTGATTCGCTTGACGCTGCTG,1.08
GCCTAGCACGACCAACTGAGTATCGAGACGTGCTAGGTCTTGATTCGCTTGACGCTGCTG,0.117
GCCTAGCACTTAGAACTGAGTTTAGATTAGTGCTAGGTCTTGATTCGCTTGACGCTGCTG,-0.395
GCCTAGCACGGCGATATCAGTCTCGAGACGTGCTAGGTCTTGATTCGCTTGACGCTGCTG,0.748

# Further values, each from its own experiment
Substance,target,test,system,conditions,how to read,measurement,result
"PhoQ, residues 284 288 289 292 302 303 SNSSNI","PhoP, residues 12 14 15 18 19 LYHSL (Escherichia coli, UniProt P23836)","Sort-seq, refers to: YFP reporter",E. coli,"PhoQ-PhoP variant library, with: 10 µM Mg2+","reference: high Mg2+ state, higher = stronger signaling",fold induction,6.1

# Repeated from above (series 1):
Oligonucleotide,log2 enrichment
GGGAGUUCUACAGUCCGACGAUCAGUGACCAUUUUAGUUAAAUUUUGUUCCUCUUCCCCCUUUUCACUUUCCUGGAAGAUCGAUGUCCCGAUCAGGAAGGUAGAGAGUUUUCCUGGAAUUCUCGGGUGUCAAGG,-0.671
